Experimental data collected from several papers.
Each line is one published result; not all experiments were run side by side. ± marks the error that the study gave.
gag-pol reverse transcriptase: Gag-Pol polyprotein, reverse transcriptase (gag-pol, Human immunodeficiency virus type 1 group M subtype B, UniProt P04585)
gag-pol protease: Gag-Pol polyprotein, protease (gag-pol, Human immunodeficiency virus type 1 group M subtype B, UniProt P04585)

For `Cc1cn([C@H]2C=C[C@@H](COP(=O)(O)OP(=O)(O)OP(=O)(O)O)O2)c(=O)[nH]c1=O`, the IC50 was 4520 ± 1160 nM (gag-pol reverse transcriptase; inhibitor; HIV-1).
`Cc1ccc(-c2cnc3c(c2)c(C#N)cn3Cc2ccccc2)cc1`: IC50 “no inhibition” (gag-pol reverse transcriptase; enzyme activity, inhibitor).
The Ki of `CC(C)CN(C[C@@H](O)[C@H](Cc1ccccc1)NC(=O)O[C@H]1C[C@@H]2C[C@H]3[C@H](OC[C@H]31)O2)S(=O)(=O)c1ccc2nc(NC3CC3)sc2c1` is reported as 0.32 nM (gag-pol protease; enzyme activity, inhibitor).
`COc1ccc(S(=O)(=O)N(CC(C)C)C[C@@H](O)[C@H](Cc2ccccc2)NC(=O)O[C@@H]2CCC[C@@]23CCO[C@@H](c2ccccc2)C3)cc1` has a Ki of 51.3 nM (gag-pol protease; enzyme activity, inhibitor, fluorometric).
For `N#C/C=C/c1ccc2c(S(=O)(=O)n3nc(Nc4ccc(C#N)c(Cl)c4)nc3N)cccc2c1`, the EC50 was 420 ± 570 nM (gag-pol reverse transcriptase; enzyme activity, inhibitor; 30 min, room temperature).
With `CC(C)CN(C[C@@H](O)[C@H](Cc1cc(F)cc(F)c1)NC(=O)O[C@H]1C[C@@H]2C[C@H]3[C@H](OC[C@H]31)O2)S(=O)(=O)c1ccc2nc(NC3CC3)sc2c1` the Ki was 0.021 nM (gag-pol protease; enzyme activity, inhibitor).
`N#Cc1cn(Cc2ccccc2)c2ncc(Br)cc12` — result for IC50: “no inhibition” (gag-pol reverse transcriptase; enzyme activity, inhibitor).
The Ki of `COc1ccc(S(=O)(=O)N(CC(C)C)C[C@@H](O)[C@H](Cc2ccccc2)NC(=O)O[C@H]2CCC[C@@]23CCO[C@@H](c2cc(OC)cc(OC)c2)C3)cc1` is reported as 2.64 nM (gag-pol protease; enzyme activity, inhibitor, fluorometric).
With `O=C(O)C1=CC(=C(c2ccc(O)c(C(=O)O)c2)c2ccc(O)c(C(=O)O)c2)C=CC1=O` the IC50 was 140 ± 19 nM (gag-pol reverse transcriptase; AZT-MP excision, inhibitor; HIV-1, wild-type reverse transcriptase; added: ATP 2 mM).
`Cc1cccc(C)c1OCC(=O)N[C@@H](Cc1ccccc1)[C@H](O)C(=O)N1CSC(C)(C)[C@H]1C(=O)N[C@H]1c2ccccc2C[C@H]1O` has a Kd of 0.063 nM (gag-pol protease; denaturation shift, tryptophan fluorescence; pH 5.0, added: GdnHCl).

Repeated from above:
The Ki of `CC(C)CN(C[C@@H](O)[C@H](Cc1ccccc1)NC(=O)O[C@H]1C[C@@H]2C[C@H]3[C@H](OC[C@H]31)O2)S(=O)(=O)c1ccc2nc(NC3CC3)sc2c1` is reported as 0.32 nM (gag-pol protease; enzyme activity, inhibitor).
`COc1ccc(S(=O)(=O)N(CC(C)C)C[C@@H](O)[C@H](Cc2ccccc2)NC(=O)O[C@@H]2CCC[C@@]23CCO[C@@H](c2ccccc2)C3)cc1` has a Ki of 51.3 nM (gag-pol protease; enzyme activity, inhibitor, fluorometric).
